{"data": "Experimental data from different studies", "target": "Tyrosine-protein kinase Yes (YES1, Homo sapiens, UniProt P07947)", "note": "Each line is one published result; not all experiments were run side by side. Several values in a cell are separate wells, animals, samples, runs or records."}
{"Structure (SMILES)": "CC(C)=CC1OC(C)(C)C2C=C3C(=O)C(Cl)=CC(O)C3C3C(O)C4OC4C(=O)C132 (stereo not drawn)", "test": "cell-free assay, competition with immobilised ligand", "conditions": "10 µM", "endpoint": "remaining binding", "result": "75%"}
{"Structure (SMILES)": "COc1c(OCCCN2CCOCC2)ccc2c1N=C(NC(=O)c1cnc(N)nc1)N1CCN=C21", "test": "kinase activity, inhibitor", "conditions": "1 µM", "scale": "reference: untreated control", "endpoint": "remaining activity", "result": "82%"}
{"Structure (SMILES)": "Nc1ncc2c(n1)-c1c([nH]c3ccc(C4=CCOCC4)cc13)CCC2", "test": "binding, competition with immobilised ligand", "conditions": "1 µM", "endpoint": "remaining binding", "result": "100%"}
{"Structure (SMILES)": "COc1ccc(NC(=O)Nc2ccc3c(c2)C(=O)N(C(C)CO)CC(C)C(CN(C)Cc2ccc4c(c2)OCO4)O3)cc1 (stereo not drawn)", "test": "kinase activity, KinaseProfiler", "conditions": "0.03 µM, species human", "scale": "reference: control", "endpoint": "remaining activity", "result": "95%"}
{"Structure (SMILES)": "CCN1CCN(Cc2ccc(NC(=O)c3ccc(C)c(NC(=O)c4cncc(-c5cccs5)c4)c3)cc2C(F)(F)F)CC1", "test": "binding, competition with immobilised ligand", "conditions": "1 µM", "endpoint": "remaining binding", "result": "0.55%"}
{"Structure (SMILES)": "CNC(=O)C[C@H](Cc1ccc(C#N)cc1)NC(=O)c1cc(-c2ccc(CN[C@H](C)c3ccc(C)cc3)o2)ccc1Cl", "test": "enzyme activity, inhibitor", "conditions": "1 µM", "endpoint": "activity vs control", "result": "99%"}
{"Structure (SMILES)": "CN1CCN(Cc2ccc(-c3ccc(CO[C@H]4CCC[C@@H]4NC(=O)c4cc(-c5cnn(C)c5)cnc4N)cc3)cc2)CC1", "test": "enzyme activity, inhibitor", "conditions": "0.1 µM", "endpoint": "inhibition", "result": "5%"}
{"Structure (SMILES)": "COc1cc(Nc2nc(C)cc(-c3cnn4nc(OC)ccc34)n2)cc(C(F)(F)F)c1", "test": "binding, competition with immobilised ligand", "conditions": "1 µM", "endpoint": "remaining binding", "result": "80%"}
{"Structure (SMILES)": "COCC12C(=O)NC3C4(C(OC)CC1O)C1CC5(O)C(OC)C(O)C(OC(C)=O)(C1C5OC(=O)c1ccccc1)C3(O)C(OC)C24 (stereo not drawn)", "test": "kinase activity, inhibitor, ProQinase kinase profiling", "conditions": "25 µM", "scale": "reference: control", "endpoint": "remaining activity", "result": "103% and 106%"}
{"Structure (SMILES)": "Cc1cccc(-c2ccc3nc(NC(=O)C4CCCCC4)nn3c2)c1", "test": "enzyme activity, Dundee kinase panel", "conditions": "10 µM", "endpoint": "remaining activity", "result": "92%"}
{"Structure (SMILES)": "O=C(Cc1ccc(OCc2ccccc2)cc1)NC1(C(=O)O)CCN(C(=O)c2ccc(-c3cccc(Cl)c3)cc2)CC1", "test": "enzyme activity, inhibitor", "conditions": "10 µM", "endpoint": "activity vs control", "result": "111%"}
{"Structure (SMILES)": "O=C=[N][Ru-4]123([n]4c5ccc(O)cc5c5c6c(c7cc(F)c[n+]1c7c54)C(=O)NC6=O)[S+]1CC[S+]2CC[S+]3CC1 (stereo not drawn)", "test": "enzyme activity", "conditions": "100 nM, human enzyme, added: 10 µM ATP", "scale": "reference: untreated", "endpoint": "remaining activity", "result": "81%"}
{"Structure (SMILES)": "C=CC(=O)N1CCc2ccc(-n3c(=O)ccc4cnc5ccc(-c6cnn(C)c6)cc5c43)cc21", "test": "KINOMEscan", "conditions": "1 µM", "scale": "reference: DMSO control", "endpoint": "remaining binding", "result": "100%"}
{"Structure (SMILES)": "NC(=O)[C@@H](O)C[C@H]1CCc2sc3ncnc(O[C@H]4CC[C@H](N5CCOCC5)CC4)c3c21", "test": "enzyme activity, inhibitor", "conditions": "10 µM", "endpoint": "inhibition", "result": "57%"}
{"Structure (SMILES)": "C=CC(=O)Nc1cccc(-c2cnc3[nH]cc(C(=O)NC(C)(C)C)c3n2)c1", "test": "kinase activity", "conditions": "0.1 µM", "endpoint": "inhibition", "result": "14% and 15%"}
{"Structure (SMILES)": "Cc1cccc(O[C@H]2CCC[C@@H](C(C)CNCc3ccncc3)C2)c1 (relative stereo)", "test": "enzyme activity, inhibitor", "conditions": "1 µM", "endpoint": "inhibition", "result": "-2%"}
{"Structure (SMILES)": "COc1c(Cl)cccc1Nc1c(-c2ccncc2C#C[C@@]2(C)CCCN2C(=O)/C=C/CN(C)C)[nH]c2c1C(=O)NCC2", "test": "cell-free assay, competition with immobilised ligand", "conditions": "3 µM", "endpoint": "remaining binding", "result": "82%"}
{"Structure (SMILES)": "CCN1CCN(Cc2ccc(C(=O)Nc3ccc(C)c(NCc4cnc5[nH]ccc5c4OC)c3)cc2C(F)(F)F)CC1", "test": "binding, competition with immobilised ligand", "conditions": "1 µM", "endpoint": "remaining binding", "result": "2.7%"}
{"Structure (SMILES)": "Cc1cnc2nc1Nc1cccc(c1)COC/C=C/COCc1cc(ccc1OCCN1CCOCC1)N2", "test": "binding", "conditions": "0.1 µM", "endpoint": "remaining binding", "result": "62%"}
{"Structure (SMILES)": "Cc1cccc(-c2ccc3nc(NC(=O)C4CCOCC4)nn3c2)c1", "test": "enzyme activity, Dundee kinase panel", "conditions": "10 µM", "endpoint": "remaining activity", "result": "94%"}
{"Structure (SMILES)": "Cc1ccc(C(=O)Nc2ccc(CN3CCN(C)CC3)c(C(F)(F)F)c2)cc1C#Cc1cnc2cccnn12", "test": "target engagement, NanoBRET", "system": "human cells", "endpoint": "upper asymptote", "result": 8080}
{"note": "Some of these lines once more:"}
{"Structure (SMILES)": "Nc1ncc2c(n1)-c1c([nH]c3ccc(C4=CCOCC4)cc13)CCC2", "test": "binding, competition with immobilised ligand", "conditions": "1 µM", "endpoint": "remaining binding", "result": "100%"}
{"Structure (SMILES)": "CC(C)=CC1OC(C)(C)C2C=C3C(=O)C(Cl)=CC(O)C3C3C(O)C4OC4C(=O)C132 (stereo not drawn)", "test": "cell-free assay, competition with immobilised ligand", "conditions": "10 µM", "endpoint": "remaining binding", "result": "75%"}
{"Structure (SMILES)": "COc1c(OCCCN2CCOCC2)ccc2c1N=C(NC(=O)c1cnc(N)nc1)N1CCN=C21", "test": "kinase activity, inhibitor", "conditions": "1 µM", "scale": "reference: untreated control", "endpoint": "remaining activity", "result": "82%"}
